# Published values pooled from the literature.
# Lines come from different studies, so protocols differ. Numbers after ± are the reported error.
SMILES,test,test system,setting,kinetic solubility
N#Cc1ccc(N2N=C3c4ccc(O)cc4CCC3C2C2CCCC2)cc1Cl (centres unmarked),,PBS,90 min,8 µM
CC1=C(O)C(=O)C=C2C1=CC=C1[C@@]2(C)CC[C@@]2(C)[C@@H]3C[C@](C)(C(=O)O)CC[C@]3(C)CC[C@]12C,,aqueous buffer,"90 min, pH 7.4, 25 °C, 0.1% DMSO",42.2 ± 0.7 µM
C=CCC(CC)(NC(=O)c1ccc(C2CC2)c(Cc2ccc(F)cc2)n1)C(=O)OCC (centres unmarked),,aqueous buffer with DMSO,,3.1 µg/mL
CNC(=O)c1ccc(C2=NN(c3ccc(C#N)c(Cl)c3)C(C)C2)cc1 (centres unmarked),,PBS,90 min,< 1 µM
CCOC(=O)[C@](CC)(CCC[S+]([O-])CCOCCOCCNC(=O)OC(C)(C)C)NC(=O)c1ccc(C2CC2)c(Cc2ccc(F)cc2)n1 (some centres unmarked),,aqueous buffer with DMSO,,5.2 µg/mL
N#Cc1ccc(N2N=C3c4ccccc4CCC3C2C2CCCC2)cc1Cl (centres unmarked),,PBS,90 min,< 1 µM
O=C1NC(=O)C(=Cc2ccc(-c3cc([N+](=O)[O-])ccc3O)o2)C(=O)N1,,PBS,"24 h, pH 7.4, 21 °C, 2.0% DMSO",85.8 µM
O=C(Nc1ccc2c(c1)C=CCP(=O)(O)O2)c1ccc(F)cc1,HPLC-UV,50 mM PBS,"16 h, pH 7.4, 25 °C, upper limit 2.5 mg/mL",2140 µg/mL
Cc1nc2c(=O)n(C)c(=O)nc-2n(C)n1,,buffer,pH 1.2,> 200 µM
CCOC(=O)C(CC)(CCCSCCOCCOCCOCCNC(=O)OC(C)(C)C)NC(=O)c1ccc(C2CC2)c(Cc2ccc(F)cc2)n1 (centres unmarked),,aqueous buffer with DMSO,,< 0.2 µg/mL
COc1ccc(NC(=O)Nc2ccc3c(c2)C=CCP(=O)(O)O3)cc1,HPLC-UV,50 mM PBS,"16 h, pH 7.4, 25 °C, upper limit 2.5 mg/mL",2260 µg/mL

# Some of these lines once more:
SMILES,test,test system,setting,kinetic solubility
O=C1NC(=O)C(=Cc2ccc(-c3cc([N+](=O)[O-])ccc3O)o2)C(=O)N1,,PBS,"24 h, pH 7.4, 21 °C, 2.0% DMSO",85.8 µM
O=C(Nc1ccc2c(c1)C=CCP(=O)(O)O2)c1ccc(F)cc1,HPLC-UV,50 mM PBS,"16 h, pH 7.4, 25 °C, upper limit 2.5 mg/mL",2140 µg/mL
